Assay results pooled from the literature.
Numbered parts are unrelated; each lists some results of a single study. Substitutions count along the parent as printed.

Sample 1 — method: protein-binding microarray; form: double-stranded DNA, one strand shown; matrix: in vitro; tested at: 250 nM; setting: 60-bp whole probe; with: salmon DNA 0.4 mg/ml; reference: random background probes; direction: higher = stronger binding; measurement: log fluorescence; shared flanks, not repeated: GCCTAGCAC … GTCTTGATTCGCTTGACGCTGCTG
Target: Interferon regulatory factor 5, full length, phosphomimetic (IRF5, Homo sapiens, UniProt Q13568-2, residues 1-514, K96S/S451D/S453D/S456D/S462D)
Strand = TGATGTCTGGGTCTTGGTTCGTGCTAG; value = -0.614 z-score
Strand = TCATAAATGATATATATCACTGTGCTA; value = 1.02 z-score
Strand = TCACATACTAATTTCCAACTGTGCTAG; value = 0.637 z-score
Strand = GACGAACTGGGGATTGGAGACGTGCTA; value = -0.504 z-score
Strand = GACGAACTGGGGCCTGGAGACGTGCTA; value = -0.69 z-score
Strand = GACGATATCAGTCTCGAGAAGTGCTAG; value = 1.44 z-score
Strand = GACGGTATCGGCTATCGGGACGTGCTA; value = 2.95 z-score

Sample 2 — target: CCNB3, cyclin fold, Cln2 fusion (human); method: yeast growth competition, sequencing; matrix: yeast; setting: weak parent motif; reference: not given; direction: higher = stronger binding; measurement: normalised enrichment score
Parent: ASZ1 docking peptide (human); GFGFLLFICKLTF; partner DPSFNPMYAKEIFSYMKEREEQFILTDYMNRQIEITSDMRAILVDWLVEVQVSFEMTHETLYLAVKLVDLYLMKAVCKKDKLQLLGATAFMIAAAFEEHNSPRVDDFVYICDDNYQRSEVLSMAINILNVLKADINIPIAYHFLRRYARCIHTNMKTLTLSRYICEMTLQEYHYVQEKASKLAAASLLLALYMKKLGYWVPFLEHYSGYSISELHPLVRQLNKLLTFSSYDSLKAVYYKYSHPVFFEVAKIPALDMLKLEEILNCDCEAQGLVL
Change = GFGFLLAICKLTF [F7A]; value = 0.385
Change = GFGFLLFICALTF [K10A]; value = 0.303
Change = GFGFLLFACKLTF [I8A]; value = 0.248
Change = AFGFLLFICKLTF [G1A]; value = 0.208
Change = GFAFLLFICKLTF [G3A]; value = 0.269
Change = GFGFALFICKLTF [L5A]; value = 0.0895

Sample 3 — method: protein binding microarray; form: double-stranded DNA, one strand shown; matrix: in vitro; tested at: not given; reference: not given; direction: higher = stronger binding; measurement: E-score
Target: Histone acetyltransferase KAT6A, winged helix 1, GST fusion (KAT6A, Homo sapiens, UniProt Q92794, residues 1-85)
Setting: 8-mer, flanks averaged, mean of 2 arrays, mostly near background
Target sequence (chain): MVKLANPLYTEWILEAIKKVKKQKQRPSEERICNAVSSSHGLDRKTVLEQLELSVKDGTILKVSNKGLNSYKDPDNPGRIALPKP
Strand = ACCCTTGA; value = 0.121
Strand = CTAATGAA; value = -0.068
Strand = GATGCATC; value = -0.0539
Strand = AGCATAGG; value = -0.124
Strand = TCCAGAGA; value = -0.134

Other studies, line by line
Molecule = PhoQ, residues 284 288 289 292 302 303 TLSLKA; target = PhoP, residues 12 14 15 18 19 LHTVM (Escherichia coli, UniProt P23836); test = Sort-seq, refers to: YFP reporter; test system = E. coli; conditions = PhoQ-PhoP variant library, with: 10 µM Mg2+; scale = reference: high Mg2+ state, higher = stronger signaling; measurement = fold induction; value = 0.587

Repeated from above (sample 2):
Change = GFGFLLAICKLTF [F7A]; value = 0.385
